Measurements collected from several papers.
± marks the error that the study gave. In brackets after ≈: the same amount, converted by molar mass.

`O=C1NCC(Cc2ccccc2)N(CC2CCCN2CC(CC2CCCCC2)N2CC(Cc3ccc(O)cc3)N(CCc3ccccc3)C(=O)C2=O)C1=O` (stereo not shown): “spliced XBP1 share” 36 ± 10% (WM 266-4; RT-PCR; 5 µM, 2 h).
Under “serum viral DNA reduction”, `CNc1cc(C(=O)Nc2ccc(Cl)cc2)ccc1OC` is recorded as no more than 2 log10 (duck hepatitis B virus; qPCR; Pekin ducklings, infected; oral, 100 mg/kg; relative to: vehicle).
`CC(=O)[O-].O.O.O.O.[Co+2].[O-]c1ccc(Br)cc1C=NCCN1CCOCC1`: “inhibition zone diameter” 10 mm (Candida albicans; 20 µL of 100 µM per disc).
For `COc1cc(CNC(=O)C[C@H](C)CCC=C(C)C)ccc1OCc1cn(-c2ccccc2[N+](=O)[O-])nn1`, the growth percent was 108% (A498; SRB; 10 µM, 48 h).
The IC50 of `CC(C)(C)OC(=O)N[C@@H](CCCCCC(=O)NO)C(=O)NC1CCCC1` is reported as greater than 200 µg (Lucilia cuprina; pupation; LS strain, larvae on impregnated cotton wool; 216 h).
For `O=C1CCN(Cc2ccccc2)CC1C(C[N+](=O)[O-])c1ccccc1` (stereo not shown), “tail flick response” read 15.2% (tail immersion test; BALB/c mice; ip, 25 mg/kg, 0.25 h).
For `Cc1sc2ncn(CC(=O)N3CCCC3)c(=O)c2c1-c1cccc(Br)c1`, “amplitude 1 area” read 71% (NMDA receptor, mouse; single-channel current, outside-out patch; cortical neurons; concentration not given, with: Ca2+ 1.25 mM).
The inhibition of `CCCCCCCCCCCCCCCC(=O)N[C@@H](CCCCN)C(=O)N[C@@H](CCCCN)C(=O)N[C@@H](CO)C(=O)N[C@@H](CCCNC(=N)N)C(=O)N[C@@H](C)C(=O)N[C@@H](CC(C)C)C(=O)N[C@@H](Cc1ccccc1)C(N)=O` is reported as 90% (baboon PAR1; ex vivo platelet aggregation; baboon; intravenous infusion, 6 mg/kg, 6 h, infusion 45 min, with: SFLLRN).
`CCCCC/C=C/C(=O)CCc1ccc(O)c(OC)c1` gave an IC50 of 0.975 µg/mL (≈ 3.53 µM) (mouse mAb 1-F12; antibody binding, indirect competitive ELISA).
The IC50 of `CN(C)c1ccc(C(=O)N[C@@H](CSCCCC(=O)NO)C(=O)Nc2ccc(-c3ccccc3)cc2)cc1` is reported as 863 µg (Lucilia cuprina; pupation; LS strain, larvae on impregnated cotton wool; 216 h).
`COc1ccc([C@@H]2CC(=O)c3c(O)cc(O[C@@H]4O[C@H](CO[C@@H]5O[C@@H](C)[C@H](O)[C@@H](O)[C@H]5O)[C@@H](O)[C@H](O)[C@H]4O)cc3O2)cc1O` has a cell count of 6670 ± 662 (MRC5; trypan blue exclusion; 150 µg/mL, 24 h).
For `COc1cc(CNC(=O)C[C@H](C)CCC=C(C)C)ccc1OCc1cn(-c2ccccc2)nn1`, the growth percent was 37.9% (RPMI-8226 leukaemia cells; SRB; 10 µM, 48 h).
`O=C(CCCCCCCC(=O)NO)NO` gave an IC50 of greater than 1000 µg (Lucilia cuprina; larval weight gain; LS strain, larvae on impregnated cotton wool; 24 h).
`CN1C[C@H](c2cccc(C(F)(F)F)c2)[C@@H](C(=O)Nc2ccccc2F)C1=O` gave a tolerance of roughly 2.8 fold (Arabidopsis thaliana; root length; overexpressing wild-type DHODH WT-10; 5 µM; relative to: non-transgenic wild type).
With `O=C(CCCCCCNC(=O)c1cnc(N(c2ccccc2)c2ccccc2)nc1)NO` the IC50 was greater than 1000 µg (Lucilia cuprina; pupation; LS strain, larvae on impregnated cotton wool; 216 h).
For `COc1ccc(NC(=O)CCc2nc3cc(Cl)ccc3[nH]c2=O)cc1`, “late apoptotic cells” read 6.25% (MCF7; annexin V-FITC; concentration not given).
`O=C(CCCCCCC(=O)NO)NO` gave an IC50 of 550 µg (Lucilia cuprina; pupation; LS strain, larvae on impregnated cotton wool; 216 h).
`COc1cc(C(=O)c2[nH]c(N)nc2-c2cccs2)cc(OC)c1OC` gave an inhibition of 33 ± 9% (tubulin goat; taxol-induced tubulin polymerization; 30 µM, with: taxol 10 µM).
With `CC(C)C(C(=O)Nc1ccc(C(=O)NO)cc1)c1ccccc1` (stereo not shown) the IC50 was 28 µg (Lucilia cuprina; pupation; LS strain, larvae on impregnated cotton wool; 216 h).
The IC50 of `COc1cc(CCC(C)=O)ccc1O` is reported as 0.68 µg/mL (≈ 3.5 µM) (mouse mAb 1-F12; antibody binding, indirect competitive ELISA).
`CC(C)C(=O)SCCCCCC(NC(=O)OC(C)(C)C)C(=O)NC12CC3CC(CC(C3)C1)C2` (stereo not shown) gave an IC50 of 284 µg (Lucilia cuprina; larval weight gain; LS strain, larvae on impregnated cotton wool; 24 h).
`Fc1ccc2c(c1)c1nc3ccc(Br)cc3c-1cn2Cc1cn(-c2ccccc2I)nn1` has a fold change of 3.39 (Giardia duodenalis; UHPLC-Q-TOF-MS, item: 1-heptadecanoyl-sn-glycero-3-phosphocholine; trophozoites; IC50, m/z 508.3, retention 10.52 min; relative to: 0.25% DMSO).
